Results from different studies.
Compare with care: the assays were run in different laboratories.
Sequence of UniProt Q13237 (whole entry, looked up): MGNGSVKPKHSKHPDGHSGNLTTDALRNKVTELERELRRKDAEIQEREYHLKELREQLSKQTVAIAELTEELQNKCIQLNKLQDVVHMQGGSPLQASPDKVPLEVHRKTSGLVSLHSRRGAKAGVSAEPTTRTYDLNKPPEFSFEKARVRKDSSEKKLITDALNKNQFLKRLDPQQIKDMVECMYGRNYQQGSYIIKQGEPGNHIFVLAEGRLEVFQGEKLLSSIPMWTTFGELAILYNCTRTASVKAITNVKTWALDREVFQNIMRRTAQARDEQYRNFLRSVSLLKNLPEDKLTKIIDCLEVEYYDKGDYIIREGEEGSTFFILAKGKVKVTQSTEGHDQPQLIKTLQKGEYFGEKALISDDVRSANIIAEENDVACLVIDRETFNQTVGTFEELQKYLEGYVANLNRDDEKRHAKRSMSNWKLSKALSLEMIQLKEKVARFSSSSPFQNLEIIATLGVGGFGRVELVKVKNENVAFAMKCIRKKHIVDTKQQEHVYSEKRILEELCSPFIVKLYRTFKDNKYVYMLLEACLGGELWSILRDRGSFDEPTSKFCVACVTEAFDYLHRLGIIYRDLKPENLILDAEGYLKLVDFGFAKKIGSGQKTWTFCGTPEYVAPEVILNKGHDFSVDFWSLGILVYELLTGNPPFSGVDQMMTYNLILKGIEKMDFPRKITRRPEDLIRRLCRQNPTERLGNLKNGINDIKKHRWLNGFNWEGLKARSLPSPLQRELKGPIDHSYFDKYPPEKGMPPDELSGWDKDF
Sequence of UniProt Q16816 (whole entry, looked up): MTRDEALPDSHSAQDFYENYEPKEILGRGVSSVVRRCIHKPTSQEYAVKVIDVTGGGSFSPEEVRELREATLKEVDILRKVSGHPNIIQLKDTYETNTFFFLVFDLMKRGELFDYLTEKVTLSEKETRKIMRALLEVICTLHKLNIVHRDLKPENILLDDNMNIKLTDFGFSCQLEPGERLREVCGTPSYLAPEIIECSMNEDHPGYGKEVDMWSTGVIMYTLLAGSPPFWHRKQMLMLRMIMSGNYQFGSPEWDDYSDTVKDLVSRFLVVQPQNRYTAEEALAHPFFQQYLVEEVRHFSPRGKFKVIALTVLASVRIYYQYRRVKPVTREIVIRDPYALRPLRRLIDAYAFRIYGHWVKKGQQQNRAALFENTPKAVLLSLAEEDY
Sequence of UniProt Q15835 (whole entry, looked up): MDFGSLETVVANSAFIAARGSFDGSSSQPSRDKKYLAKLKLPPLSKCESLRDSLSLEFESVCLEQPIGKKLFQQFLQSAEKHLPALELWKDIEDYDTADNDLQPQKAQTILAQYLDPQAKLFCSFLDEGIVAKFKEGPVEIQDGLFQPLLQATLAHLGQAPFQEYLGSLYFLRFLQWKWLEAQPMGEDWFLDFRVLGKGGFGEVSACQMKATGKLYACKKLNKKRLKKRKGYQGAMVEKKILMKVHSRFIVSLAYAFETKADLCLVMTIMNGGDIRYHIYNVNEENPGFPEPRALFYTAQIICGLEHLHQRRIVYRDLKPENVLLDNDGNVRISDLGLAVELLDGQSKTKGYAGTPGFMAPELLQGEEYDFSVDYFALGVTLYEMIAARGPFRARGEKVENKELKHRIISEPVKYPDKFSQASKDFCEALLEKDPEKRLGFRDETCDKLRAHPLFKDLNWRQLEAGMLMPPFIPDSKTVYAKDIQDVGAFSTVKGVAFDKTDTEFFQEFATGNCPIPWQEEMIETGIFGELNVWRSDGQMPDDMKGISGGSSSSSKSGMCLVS
Sequence of UniProt P50613 (whole entry, looked up): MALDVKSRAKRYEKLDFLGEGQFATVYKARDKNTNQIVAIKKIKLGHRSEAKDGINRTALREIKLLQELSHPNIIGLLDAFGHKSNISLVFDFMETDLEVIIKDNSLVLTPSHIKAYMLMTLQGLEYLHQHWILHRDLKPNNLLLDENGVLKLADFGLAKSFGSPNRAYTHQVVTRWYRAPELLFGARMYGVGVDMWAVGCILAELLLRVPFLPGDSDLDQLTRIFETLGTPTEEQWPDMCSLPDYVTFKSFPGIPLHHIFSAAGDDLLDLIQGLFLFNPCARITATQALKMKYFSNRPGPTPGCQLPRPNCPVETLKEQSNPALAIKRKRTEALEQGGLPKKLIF

Structure (SMILES)	target or system	assay	conditions	measurement	result
COc1cc(-c2cncc3c2CN(C)Cc2cc(N4CCNCC4)ccc2-3)cc(OC)c1OC	cGMP-dependent protein kinase 2 (PRKG2, Homo sapiens, UniProt Q13237)	enzyme activity, inhibitor	1 µM	remaining activity	110%
C=CC(=O)N1CCC(COCC(=O)N2CCN(c3nc(-c4cnc(N)nc4C(F)F)nc(N4CCOC[C@@H]4C)n3)CC2)CC1	Rhodopsin kinase GRK1 (GRK1, Homo sapiens, UniProt Q15835)	binding, competition with immobilised ligand	1 µM	remaining binding	100%
CCN(CC(=O)Nc1ccc(Oc2ccc(C)cc2)cc1)c1ccccc1N1CCCC1=O	HepG2	cell growth or viability, ATP luminescence	48 h	CC50	> 40 µM
CCCCC(=O)Nc1ccc(-c2ccc3ncn(CCC)c(=O)c3c2)cn1	Phosphorylase b kinase gamma catalytic chain, skeletal muscle/heart isoform (PHKG1, Homo sapiens, UniProt Q16816)	binding, competition with immobilised ligand	0.5 µM	remaining binding	100%
Cc1nc(O)n2ncc(Cl)c2n1	K562	cell growth or viability		IC50	> 688 µM
Nc1ccn([C@@H]2O[C@H](CO)[C@@H](O)C2(F)F)c(=O)n1	HEK293	cell growth or viability, MTT	2.5 µg/mL, 48 h	viability	40.3%
Nc1c(C(=O)Nc2ccc(C3=NCCN3)cc2)cccc1C(=O)Nc1ccc(C2=NCCN2)cc1	K562	cell growth or viability		IC50	> 137 µM
CC(C)N(c1ccc(C#N)cc1)c1ccc(NC(=O)CN(C)c2ccccc2N2CCCC2=O)c(F)c1	HepG2	cell growth or viability, ATP luminescence	48 h	CC50	> 40 µM
COc1cccc(NC(=O)Nc2ccc(Oc3nc4ccccc4n4cnnc34)cc2)c1	WI-38	cell growth or viability, MTT	25 µM, 24 h	viability	78.4%
CCOC(=O)/C(=N\NC(N)=S)c1cccs1	K562	cell growth or viability		IC50	107 µM
CC(=O)c1nn(-c2ccc(C)cc2)/c(=N/N=C(\C)c2ccc(NC(=O)c3ccccc3)cc2)s1	WI-38	cell growth or viability, MTS	1.25 µM, 24 h	viability	4.38%
Cc1ccc(C(O)c2ccc(NC(=O)CN(C)c3ccccc3N3CCCC3=O)cc2)cc1 (stereo not shown)	HepG2	cell growth or viability, ATP luminescence	48 h	CC50	> 40 µM
Cc1cc([C@@H](C)Nc2ccccc2C(=O)O)c2nc(N3CCC(F)(F)CC3)c(C#N)c(=O)n2c1	Cyclin-dependent kinase 7 (CDK7, Homo sapiens, UniProt P50613)	binding, competition with immobilised ligand	10 µM	remaining binding	90%
